Results pooled from the literature.
Numbers after ± are the reported error.
Genome polyprotein NS2B-NS3 protease: Genome polyprotein, NS2B-NS3 protease (dengue virus type 2, UniProt P29990)
HDAC11: Histone deacetylase 11 (HDAC11, Homo sapiens, UniProt Q96DB2)
Chain of UniProt Q96DB2 (whole entry, looked up): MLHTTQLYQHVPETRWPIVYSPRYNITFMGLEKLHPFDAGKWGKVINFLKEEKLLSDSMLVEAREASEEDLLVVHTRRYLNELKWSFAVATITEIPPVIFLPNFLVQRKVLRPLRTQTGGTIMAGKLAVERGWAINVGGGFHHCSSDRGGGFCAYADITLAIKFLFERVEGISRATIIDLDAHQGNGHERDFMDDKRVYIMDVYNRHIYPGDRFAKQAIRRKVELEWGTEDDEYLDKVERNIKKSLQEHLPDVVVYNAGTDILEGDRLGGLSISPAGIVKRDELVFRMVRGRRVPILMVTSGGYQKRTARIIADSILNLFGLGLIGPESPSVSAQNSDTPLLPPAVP
Apeh: Acylamino-acid-releasing enzyme (Apeh, Mus musculus, UniProt Q8R146)
Chain of UniProt Q8R146 (whole entry, looked up): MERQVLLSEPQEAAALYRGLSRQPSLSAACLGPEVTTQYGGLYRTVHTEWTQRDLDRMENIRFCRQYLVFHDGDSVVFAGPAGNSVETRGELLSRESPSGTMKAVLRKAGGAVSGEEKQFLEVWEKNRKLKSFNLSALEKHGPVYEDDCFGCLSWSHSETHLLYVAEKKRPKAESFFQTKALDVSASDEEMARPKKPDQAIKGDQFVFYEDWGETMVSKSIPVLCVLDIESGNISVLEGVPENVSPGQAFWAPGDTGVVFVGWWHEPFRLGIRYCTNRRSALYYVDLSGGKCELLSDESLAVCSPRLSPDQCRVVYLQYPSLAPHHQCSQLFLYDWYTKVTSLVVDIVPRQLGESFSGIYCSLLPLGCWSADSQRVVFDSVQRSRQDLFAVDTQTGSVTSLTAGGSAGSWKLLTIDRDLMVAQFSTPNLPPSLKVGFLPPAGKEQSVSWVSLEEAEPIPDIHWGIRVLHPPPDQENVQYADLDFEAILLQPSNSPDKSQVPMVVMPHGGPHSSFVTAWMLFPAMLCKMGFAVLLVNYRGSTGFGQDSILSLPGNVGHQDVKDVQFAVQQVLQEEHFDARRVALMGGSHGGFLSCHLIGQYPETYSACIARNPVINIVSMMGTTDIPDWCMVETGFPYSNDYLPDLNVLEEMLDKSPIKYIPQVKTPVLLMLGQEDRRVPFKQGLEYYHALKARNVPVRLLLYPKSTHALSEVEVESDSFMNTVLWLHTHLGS
SIRT5: NAD-dependent protein deacylase sirtuin-5, mitochondrial (SIRT5, Homo sapiens, UniProt Q9NXA8)
Chain of UniProt Q9NXA8 (whole entry, looked up): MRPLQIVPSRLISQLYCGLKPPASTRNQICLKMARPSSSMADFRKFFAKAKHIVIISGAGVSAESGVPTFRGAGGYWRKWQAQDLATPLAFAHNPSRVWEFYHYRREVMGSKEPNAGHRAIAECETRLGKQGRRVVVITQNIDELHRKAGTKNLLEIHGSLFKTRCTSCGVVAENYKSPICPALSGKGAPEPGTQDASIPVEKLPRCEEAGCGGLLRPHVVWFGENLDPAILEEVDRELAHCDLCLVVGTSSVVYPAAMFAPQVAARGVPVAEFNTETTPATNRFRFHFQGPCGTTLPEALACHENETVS
TACR2: Substance-K receptor (TACR2, Homo sapiens, UniProt P21452)
Chain of UniProt P21452 (whole entry, looked up): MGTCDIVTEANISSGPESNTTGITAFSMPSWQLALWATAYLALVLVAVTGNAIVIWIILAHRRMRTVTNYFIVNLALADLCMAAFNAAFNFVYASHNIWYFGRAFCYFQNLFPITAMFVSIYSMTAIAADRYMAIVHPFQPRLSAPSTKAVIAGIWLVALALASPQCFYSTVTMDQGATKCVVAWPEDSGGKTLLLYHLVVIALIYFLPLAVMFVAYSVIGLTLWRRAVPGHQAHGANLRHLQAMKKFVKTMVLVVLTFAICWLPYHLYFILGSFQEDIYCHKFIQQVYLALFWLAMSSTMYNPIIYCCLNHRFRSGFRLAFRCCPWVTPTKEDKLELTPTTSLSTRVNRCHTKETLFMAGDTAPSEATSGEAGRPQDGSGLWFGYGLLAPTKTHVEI
Chain of UniProt Q6P2P2 (whole entry, looked up): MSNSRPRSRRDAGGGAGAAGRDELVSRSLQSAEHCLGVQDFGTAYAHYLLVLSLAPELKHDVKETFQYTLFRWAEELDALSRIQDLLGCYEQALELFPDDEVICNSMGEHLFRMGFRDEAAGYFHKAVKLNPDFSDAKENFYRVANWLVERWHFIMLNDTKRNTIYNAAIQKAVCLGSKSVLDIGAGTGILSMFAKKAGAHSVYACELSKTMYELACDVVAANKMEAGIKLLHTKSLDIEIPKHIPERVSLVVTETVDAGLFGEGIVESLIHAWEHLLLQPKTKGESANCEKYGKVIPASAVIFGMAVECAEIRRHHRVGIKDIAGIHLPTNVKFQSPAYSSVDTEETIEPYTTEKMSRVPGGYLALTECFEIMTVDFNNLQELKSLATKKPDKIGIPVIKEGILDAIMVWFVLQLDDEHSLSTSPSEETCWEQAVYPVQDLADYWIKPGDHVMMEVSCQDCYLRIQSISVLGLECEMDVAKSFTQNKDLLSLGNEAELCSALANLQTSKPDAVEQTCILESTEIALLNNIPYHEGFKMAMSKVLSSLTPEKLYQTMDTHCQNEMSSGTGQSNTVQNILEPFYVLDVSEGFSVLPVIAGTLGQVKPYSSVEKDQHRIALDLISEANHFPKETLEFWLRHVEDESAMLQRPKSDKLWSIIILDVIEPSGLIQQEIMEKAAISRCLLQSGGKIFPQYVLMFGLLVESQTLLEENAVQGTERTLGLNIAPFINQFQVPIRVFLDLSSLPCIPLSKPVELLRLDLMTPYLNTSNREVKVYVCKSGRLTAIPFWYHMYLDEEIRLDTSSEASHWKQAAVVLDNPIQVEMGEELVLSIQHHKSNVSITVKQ
Chain of UniProt Q9NYV4 (whole entry, looked up): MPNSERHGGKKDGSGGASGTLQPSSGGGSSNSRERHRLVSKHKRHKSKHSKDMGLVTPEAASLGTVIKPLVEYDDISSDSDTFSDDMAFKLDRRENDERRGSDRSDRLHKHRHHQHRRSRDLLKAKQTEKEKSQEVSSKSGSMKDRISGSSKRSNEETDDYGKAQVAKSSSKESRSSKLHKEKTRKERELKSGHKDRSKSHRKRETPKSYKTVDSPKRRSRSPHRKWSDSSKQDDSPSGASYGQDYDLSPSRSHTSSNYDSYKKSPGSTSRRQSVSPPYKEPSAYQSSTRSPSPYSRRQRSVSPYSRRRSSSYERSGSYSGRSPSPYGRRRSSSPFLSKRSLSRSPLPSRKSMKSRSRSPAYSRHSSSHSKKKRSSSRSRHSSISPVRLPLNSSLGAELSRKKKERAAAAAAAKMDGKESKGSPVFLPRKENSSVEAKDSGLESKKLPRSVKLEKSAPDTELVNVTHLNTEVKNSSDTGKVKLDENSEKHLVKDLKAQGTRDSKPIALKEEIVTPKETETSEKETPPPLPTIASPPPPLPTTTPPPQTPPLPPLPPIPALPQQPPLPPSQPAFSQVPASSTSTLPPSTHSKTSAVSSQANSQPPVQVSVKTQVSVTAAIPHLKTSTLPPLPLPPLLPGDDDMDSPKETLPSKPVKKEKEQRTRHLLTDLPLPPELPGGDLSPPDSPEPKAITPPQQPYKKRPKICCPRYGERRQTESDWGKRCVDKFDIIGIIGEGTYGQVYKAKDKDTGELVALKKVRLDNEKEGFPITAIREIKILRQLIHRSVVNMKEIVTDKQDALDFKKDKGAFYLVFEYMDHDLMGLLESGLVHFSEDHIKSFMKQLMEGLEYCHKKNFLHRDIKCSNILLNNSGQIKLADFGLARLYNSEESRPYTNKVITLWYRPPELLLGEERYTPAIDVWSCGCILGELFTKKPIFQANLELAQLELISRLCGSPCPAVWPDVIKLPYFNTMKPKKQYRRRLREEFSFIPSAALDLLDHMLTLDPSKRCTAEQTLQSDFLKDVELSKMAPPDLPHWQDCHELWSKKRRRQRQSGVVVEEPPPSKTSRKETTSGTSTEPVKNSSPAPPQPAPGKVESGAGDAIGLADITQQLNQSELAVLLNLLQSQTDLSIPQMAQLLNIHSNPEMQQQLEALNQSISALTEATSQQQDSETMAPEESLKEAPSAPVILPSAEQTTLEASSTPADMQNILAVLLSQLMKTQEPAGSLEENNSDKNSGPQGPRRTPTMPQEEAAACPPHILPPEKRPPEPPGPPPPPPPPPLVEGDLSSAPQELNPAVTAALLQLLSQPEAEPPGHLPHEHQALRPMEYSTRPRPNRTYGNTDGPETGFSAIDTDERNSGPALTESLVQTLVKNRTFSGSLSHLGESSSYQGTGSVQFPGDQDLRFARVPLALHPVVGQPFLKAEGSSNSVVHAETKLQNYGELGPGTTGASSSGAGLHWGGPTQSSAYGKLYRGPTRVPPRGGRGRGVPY
Chain of UniProt Q15118 (whole entry, looked up): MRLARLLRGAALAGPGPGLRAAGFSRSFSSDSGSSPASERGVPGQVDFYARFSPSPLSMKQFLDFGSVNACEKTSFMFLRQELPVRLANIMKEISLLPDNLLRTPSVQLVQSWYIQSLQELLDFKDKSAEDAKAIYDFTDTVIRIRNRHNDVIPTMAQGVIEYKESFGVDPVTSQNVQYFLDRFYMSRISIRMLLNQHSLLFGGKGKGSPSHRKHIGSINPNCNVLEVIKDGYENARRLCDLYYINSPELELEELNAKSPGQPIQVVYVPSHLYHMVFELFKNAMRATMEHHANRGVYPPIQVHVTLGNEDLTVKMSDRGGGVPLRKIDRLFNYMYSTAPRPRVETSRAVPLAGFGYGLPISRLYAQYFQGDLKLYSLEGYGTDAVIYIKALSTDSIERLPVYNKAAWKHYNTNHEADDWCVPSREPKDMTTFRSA
Chain of UniProt Q01727 (whole entry, looked up): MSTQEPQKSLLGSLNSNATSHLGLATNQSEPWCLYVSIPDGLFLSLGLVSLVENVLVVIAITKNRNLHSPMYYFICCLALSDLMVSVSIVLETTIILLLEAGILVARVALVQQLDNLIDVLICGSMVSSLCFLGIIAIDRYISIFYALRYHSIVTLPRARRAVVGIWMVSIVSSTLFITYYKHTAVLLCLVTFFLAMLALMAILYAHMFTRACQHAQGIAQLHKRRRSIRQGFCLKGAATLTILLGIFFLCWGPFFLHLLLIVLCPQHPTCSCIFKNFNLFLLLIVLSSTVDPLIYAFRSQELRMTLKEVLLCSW

| Structure (SMILES) | target or system | assay | test system | conditions | scale | measurement | value |
| --- | --- | --- | --- | --- | --- | --- | --- |
| Cc1ccc(C(NC(=O)c2cc(-c3ccccc3)n(-c3ccccc3)n2)c2ccncc2)cc1 (stereo not shown) | Genome polyprotein NS2B-NS3 protease | reporter gene | HeLa | 12.5 µM |  | inhibition | 82% |
| Cc1cc(C(C)(C)C)ccc1OS(=O)(=O)Oc1cncc(C(=O)NO)c1 | HDAC11 |  |  | 10 µM |  | inhibition | 18% |
| NC(=O)c1cccc(NC(=O)c2cc(-c3ccccc3)n(-c3ccccc3)n2)c1 | Genome polyprotein NS2B-NS3 protease | reporter gene | HeLa | 12.5 µM |  | inhibition | 59% |
| CCn1cc(C(=O)O)c(=O)c2c(N)c(F)c(NC3CCCCC3)cc21 | Cyclin-dependent kinase 12, with cyclin K (CDK12, Homo sapiens, UniProt Q9NYV4) | kinase activity |  | 0.1 µM, with: ATP at Km |  | inhibition | -13.7% |
| CC(=O)N[C@H](C(=O)N[C@@H](CO)C(=O)N[C@@H](Cc1ccccc1)C(=O)N[C@H]1CCCCNC(=N)NCCCN(C)CCCNC(=N)NCCCC[C@@H](C(=O)N2CCC[C@H]2C(N)=O)NC(=O)[C@H](CC(C)C)NC(=O)[C@H](CC(C)C)NC(=O)[C@H](C)NC(=O)[C@H](Cc2c[nH]c3ccccc23)NC(=O)[C@H](Cc2ccc(O)cc2)NC(=O)[C@H](CCC(=O)O)NC1=O)[C@@H](C)O | MDM2 (Homo sapiens, UniProt Q00987) | protein-protein interaction, inhibitor, TR-FRET |  | 0.1 µM |  | inhibition | 98% |
| CN1CCN(C(=O)n2ccnn2)CC1 | Apeh | serine hydrolase activity, inhibitor, competitive gel-based ABPP | mouse T-cell proteome | 1 µM, 30 min, 37 °C |  | inhibition | < 50% |
| C/C=C/C(=O)Nc1ccc2nc(NCCCCCN(C)C)nc(NCCCCCCN(C)C)c2c1 | PRMT1 (Homo sapiens, UniProt Q99873) | enzyme activity, inhibitor, radiometric |  | 10 µM |  | inhibition | 65% |
| NC(=O)C[C@H]1CCc2sc3ncnc(O[C@H]4CC[C@H](N5CCOCC5)CC4)c3c21 | RIPK3 (Homo sapiens, UniProt Q9Y572) | enzyme activity, inhibitor |  | 10 µM |  | inhibition | 29% |
| Cc1cc(C)nc(SCC(=O)Nc2ncc(Cc3cccc4ccccc34)s2)n1 | SIRT5 | enzyme activity, inhibitor |  | 100 µM |  | inhibition | < 5% |
| O=C1c2sc(-c3ccc(N4CCC(CO)CC4)nc3F)nc2CCN1c1cccnc1 | Mc1r (Mus musculus, UniProt Q01727) | ligand displacement, radioligand |  | 1 µM |  | inhibition | -6% |
| C=CC(=O)Nc1cc(-c2nn(C3CCN(CCNC(=O)[C@H](C)CCC45CC6CC(CC(C6)C4)C5)CC3)c3ncnc(N)c23)ccc1Oc1ccccc1 | PDK1 (Homo sapiens, UniProt Q15118) | inhibitor, KiNativ profiling | biochemical | 2 µM |  | inhibition | -25.3% |
| CCCCCCCCCCCCCCCC(=O)N[C@@H](CCCCN)C(=O)N[C@@H](CCCCN)C(=O)N[C@@H](CO)C(=O)N[C@@H](CCCNC(=N)N)C(=O)N[C@@H](C)C(=O)N[C@@H](CC(C)C)C(=O)N[C@@H](Cc1ccccc1)C(N)=O | F2RL3 (Homo sapiens, UniProt Q96RI0) | platelet aggregation, ex vivo LTA | human | 0.3 mg/kg, 4 to 6 h, with: AYPGKF 160 µM | reference: baseline | inhibition | 18% |
| N#Cc1cc(NC(=O)c2cc(-c3ccccc3)n(-c3ccccc3)n2)ccc1N1CCOCC1 | Genome polyprotein NS2B-NS3 protease | reporter gene | HeLa | 12.5 µM |  | inhibition | 58% |
| O=C1c2sc(-c3ccc(N4CCC(F)C4)nc3F)nc2CCN1c1cccnc1 (stereo not shown) | TACR2 | ligand displacement, radioligand |  | 1 µM |  | inhibition | -8% |
| Nc1ccc(CNC(=O)c2cc(-c3ccccc3)n(-c3ccccc3)n2)cc1 | Genome polyprotein NS2B-NS3 protease | enzyme activity, fluorogenic AMC substrate |  | 50 µM |  | inhibition | 11% |
| O=C(CCCc1ccc2c(c1)OCCO2)NCCNC(=O)Cn1c(=O)[nH]c(=O)c2ccccc21 | TNKS (Homo sapiens, UniProt O95271) | enzyme activity, inhibitor |  | 50 nM |  | inhibition | 10% |
| C[Si](C)(C)C[C@H](CN)CC(=O)O | NPY1R (Homo sapiens, UniProt P25929) | ligand displacement, radioligand |  | 250 µM |  | inhibition | -4% |

| Structure (SMILES) | target or system | assay | test system | conditions | scale | measurement | value |
| --- | --- | --- | --- | --- | --- | --- | --- |
| C/C1=C\CC/C(C)=C/CC(C)(C)/C=C/C1 | SCN9A (Homo sapiens, UniProt Q15858) | ion current, inhibitor, whole-cell patch clamp | HEK293 | 100 µM, 5 min |  | inhibition | 5 ± 5% |
| CN(C)C/C=C/C(=O)Nc1ccc2nc(NCCCCCN(C)C)nc(NCCCCCCN(C)C)c2c1 | PRMT9 (Homo sapiens, UniProt Q6P2P2) | enzyme activity, inhibitor, radiometric |  | 50 µM |  | inhibition | 81% |
| N#Cc1cc(NC(=O)c2cc(-c3ccccc3)n(-c3ccccc3)n2)ccc1N1CCCC1 | Genome polyprotein NS2B-NS3 protease | enzyme activity, fluorogenic AMC substrate |  | 50 µM |  | inhibition | 63% |
| CC(C)Cn1c(SCC(=O)N2CCc3ccccc3C2)nc2cc(Cl)ccc2c1=O | GABAA receptor | binding |  | 10 µM |  | inhibition | 9% |
| Cc1ccc(-c2nn(-c3ccc(S(C)(=O)=O)cc3)cc2/C=N/N=C2/NC(=O)CS2)cc1 | EGFR (Homo sapiens, UniProt P00533) | kinase activity, inhibitor |  | 100 µM |  | inhibition | 92.6% |
| C[Si]1(C[C@H](CN)CC(=O)O)CCCC1 | TNF-alpha receptor, human | binding, radioligand binding |  | 70 µM, with: iodinated TNF-alpha |  | inhibition | -1% |
| NC(=O)c1cccc(NC(=O)c2cc(-c3ccc4c(c3)OCCO4)n(-c3ccccc3)n2)c1 | Genome polyprotein NS2B-NS3 protease | reporter gene | HeLa | 12.5 µM |  | inhibition | 50% |
| O=C(n1ccnn1)n1c2ccccc2c2ccccc21 | Apeh | serine hydrolase activity, inhibitor, competitive gel-based ABPP | mouse T-cell proteome | 1 µM, 30 min, 37 °C |  | inhibition | < 50% |
| COc1ccc(S(=O)(=O)N2CCc3ccccc3C2)cc1N1CCN(C(=O)c2ccc(F)cc2C(F)(F)F)CC1 | TACR2 | ligand displacement, radioligand |  | 1 µM |  | inhibition | 13.7% |
| O=C(NO)c1cc(F)cc(OS(=O)(=O)Oc2ccc3ccccc3c2)c1 | HDAC11 |  |  | 10 µM |  | inhibition | 20% |
| COC1CN([C@H]2CC[C@H]([C@@]3(C)Oc4c(Cl)cc(C(=O)NCc5c(SC)cc(C)[nH]c5=O)c(C)c4O3)CC2)C1 |  | RNA-seq, item: PHLDA3 | human, whole blood | dose not given, 24 h | reference: pretreatment baseline | log2 fold change | 1.31 |
| NCc1ccc(CNC(=O)c2cc(-c3ccccc3)n(-c3ccccc3)n2)cc1 | Genome polyprotein NS2B-NS3 protease | reporter gene | HeLa | 12.5 µM |  | inhibition | 39% |
| O=C(NC1CCC1)[C@H](Cc1c[nH]c2ccccc12)NC(=O)[C@H](CCCCNC(=S)Nc1ccc(F)c(O)c1F)NS(=O)(=O)c1cccc(F)c1 | SIRT5 | enzyme activity, inhibitor |  | 100 µM |  | inhibition | 61% |
| O=C(c1cc(-c2ccccc2)n(-c2ccccc2)n1)N1CCc2nc[nH]c2C1 | Genome polyprotein NS2B-NS3 protease | reporter gene | HeLa | 12.5 µM |  | inhibition | 37% |
| Cn1ccc2cc(-n3c(=O)[nH]c4sc5c(c4c3=O)CCCC5)ccc21 | ADRA1D (Homo sapiens, UniProt P25100) | cell-free assay, radioligand |  | 10 µM |  | inhibition | 3% |
| Cc1ncsc1-c1ccc(C(C)NC(=O)C2CC(O)CN2C(=O)C(NC(=O)CCCCCCCCCCN2CCCC(Nc3ncc(Cl)c(Nc4ccccc4S(=O)(=O)C(C)C)n3)C2)C(C)(C)C)cc1 (stereo not shown) | 22Rv1 | RNA-seq, item: PAFAH2 mRNA |  | concentration not given | reference: DMSO | log2 fold change | -1.32 |
| CS(=O)(=O)Nc1cccc(-c2csc3cnc(Nc4ccc(N5CCN(CCCCCOc6cccc7c6C(=O)N(C6CCC(=O)NC6=O)C7=O)CC5)cc4)nc23)c1 (stereo not shown) | DGKA (Homo sapiens, UniProt P23743) | probe labelling, inhibitor, KiNativ chemoproteomics | MOLT-4 | 1 µM |  | inhibition | -19.8% |

Repeated from above:
| Structure (SMILES) | target or system | assay | test system | conditions | scale | measurement | value |
| --- | --- | --- | --- | --- | --- | --- | --- |
| Nc1ccc(CNC(=O)c2cc(-c3ccccc3)n(-c3ccccc3)n2)cc1 | Genome polyprotein NS2B-NS3 protease | enzyme activity, fluorogenic AMC substrate |  | 50 µM |  | inhibition | 11% |
| O=C(CCCc1ccc2c(c1)OCCO2)NCCNC(=O)Cn1c(=O)[nH]c(=O)c2ccccc21 | TNKS (Homo sapiens, UniProt O95271) | enzyme activity, inhibitor |  | 50 nM |  | inhibition | 10% |
| C[Si](C)(C)C[C@H](CN)CC(=O)O | NPY1R (Homo sapiens, UniProt P25929) | ligand displacement, radioligand |  | 250 µM |  | inhibition | -4% |
| C/C1=C\CC/C(C)=C/CC(C)(C)/C=C/C1 | SCN9A (Homo sapiens, UniProt Q15858) | ion current, inhibitor, whole-cell patch clamp | HEK293 | 100 µM, 5 min |  | inhibition | 5 ± 5% |
